# Measurements of several laboratories.
# Protocols differ between the studies behind these lines. ± gives the spread as reported.
# HCRTR1: Orexin/Hypocretin receptor type 1 (HCRTR1, Homo sapiens, UniProt O43613)
# GRB2: Growth factor receptor-bound protein 2 (GRB2, Homo sapiens, UniProt P62993)
# SLC4A1: SLC4A1 (Homo sapiens, UniProt P02730)
# LRP1 CR8 domain: LRP1, CR8 domain (Homo sapiens, UniProt Q07954)
# B1: Rad9 754–931 (S. cerevisiae); sequence looked up; chain GKDSKEQSYVFPEGIRTADNSFLSKDDIIFGNAVWCQYTWNYKFYPGILLEVDTNQDGCWIYFETGRSLTKDEDIYYLDIRIGDAVTFDGNEYVVVGLECRSHDLNIIRCIRGYDTVHLKKKNASGLLGKRTLIKALSSISLDLSEWAKRAKIILEDNEKNKGDAYRYLRHPIRGRKS
Substance,target,assay,test system,conditions,how to read,Kd [µM]
O=C(O)CNC(=O)c1cc(CNC(=O)c2ccc(CNC(=O)[C@H]3C[C@H](NC(=O)CCNS(=O)(=O)c4ccc5ccccc5c4)CN3C(=O)c3nn(-c4ccccc4)c(=O)[nH]c3=O)cc2)cc(OCC(=O)N[C@@H](CCCCNC(=S)Nc2ccc3c(c2)C(=O)OC32c3ccc(O)cc3Oc3cc(O)ccc32)C(=O)O)c1,"FOLH1 (Homo sapiens, UniProt Q04609)","cell-free assay, FP",,,,0.019
COc1ccc(CC2c3cc(OS(=O)(=O)C(F)(F)F)c(OC)cc3CCN2CC(=O)NCc2ccccc2)cc1OC (stereo not shown),HCRTR1,,,,,0.01 ± 0.0028
CC[C@H](C)[C@H](NC(=O)[C@@H](N)CC(=O)O)C(=O)N1CCC[C@H]1C(=O)N1CCC[C@H]1C(=O)N1CCC[C@H]1C(=O)N[C@@H](CCCNC(=N)N)C(=O)N1CCC[C@H]1C(=O)N1CCC[C@H]1C(=O)N[C@@H](CCCCN)C(=O)N1CCC[C@H]1C(=O)N[C@@H](C)C(=O)N1CCC[C@H]1C(=O)O,GRB2,"binding, ITC",,pH 8,,157
B1 (Rad9 754–931),"double-stranded DNA, 35 bp","DNA binding, EMSA",,"2 h, pH 8.0, 22 °C",,2.07 ± 0.27
COc1ccc(CC2c3cc(OCCN4CCCCC4)c(OC)cc3CCN2CC(=O)NCc2ccccc2)cc1OC (stereo not shown),HCRTR1,,,,,8.04 ± 5.4
CC[C@H](C)[C@H](NC(=O)[C@@H](N)CC(=O)O)C(=O)N[C@@H](C)C(=O)N1CCC[C@H]1C(=O)N1CCC[C@H]1C(=O)N[C@@H](CCCNC(=N)N)C(=O)N1CCC[C@H]1C(=O)N1CCC[C@H]1C(=O)N[C@@H](CCCCN)C(=O)N1CCC[C@H]1C(=O)N[C@@H](Cc1c[nH]cn1)C(=O)N1CCC[C@H]1C(=O)O,GRB2,"binding, ITC",,pH 8,,365
CCCCCC(=O)Nc1ccc(CNC(=O)CN2CCc3cc(OC)c(OC)cc3C2Cc2ccc(OC)c(OC)c2)cc1 (stereo not shown),HCRTR1,,,,,> 10
O=S(=O)(O)c1cccc2c(-c3ccc(Nc4ccccc4)c4c(S(=O)(=O)O)cccc34)ccc(Nc3ccccc3)c12,"uncharacterized protein (Drosophila suzukii, UniProt A0AB39ZCT4)",fluorescent probe titration,,,,0.812
O=C1c2c(O)ccc(O)c2C(=O)c2c(NCCNCCO)ccc(NCCNCCO)c21,HIV-1 nucleocapsid-SL2 RNA complex,"binding, ESI-FTMS",,pH 7.5,,11.9 ± 1.8
CC(=O)N1CCC[C@H]1C(=O)N[C@@H](CCCNC(=N)N)C(=O)N[C@H](C(=O)N1CCC[C@H]1C(=O)N1CCC[C@H]1C(=O)N1CCC[C@H]1C(=O)N1CCC[C@H]1C(=O)N[C@H](C(=O)N[C@@H](CCCNC(=N)N)C(=O)N[C@@H](CCCNC(=N)N)C(N)=O)C(C)C)C(C)C,"Growth factor receptor-bound protein 2, N-terminal SH3 domain (GRB2, Homo sapiens, UniProt P62993)","binding, tryptophan fluorescence",PBS,21 °C,,173.1 ± 1.16
O=[N+]([O-])c1ccc(C=Cc2ccc([N+](=O)[O-])cc2S(=O)(=O)O)c(S(=O)(=O)O)c1,SLC4A1,"chloride efflux, competitive inhibitor",human erythrocytes,"pH 7.2, 0 °C, internal chloride 150 mM",,0.0485
CSCC[C@H](NC(=O)[C@H](CC(C)C)NC(=O)[C@H](CC(C)C)NC(=O)[C@H](CC(C)C)NC(=O)[C@H](C)N)C(=O)N[C@@H](Cc1ccc(O)cc1)C(=O)N[C@@H](CCCNC(=N)N)C(=O)N[C@@H](CCCNC(=N)N)C(=O)O,"dnaK (Escherichia coli, UniProt P0A6Y8)","peptide binding, surface plasmon resonance",,together with: ADP,,2.44
COc1ccc(CC2c3cc(OCCN(C)C)c(OC)cc3CCN2CC(=O)NCc2ccccc2)cc1OC (stereo not shown),HCRTR1,,,,,4.74 ± 0.44
CCCCCOc1ccc(COc2cccc(O)c2C(=O)O)cc1,"ALOX5 (Homo sapiens, UniProt P09917)","enzyme activity, activator, Michaelis-Menten kinetics",,"binding to free enzyme, together with: linoleic acid",,8.65
COCc1c(C(C)C)nc(C(C)C)c(/C=C/[C@@H](O)C[C@@H](O)CC(=O)O)c1-c1ccc(F)cc1,"Cytochrome P450 2C8 (CYP2C8, Homo sapiens, UniProt P10632, K399R/R139K)","binding, equilibrium spectral titration",purified enzyme,"pH 7.4, 25 °C, second site, two-site model, together with: 2 µM enzyme",,8.2 ± 2.2
CC(C)C[C@H](NC(=O)[C@H](C)NC(=O)[C@H](CCCNC(=N)N)NC(=O)[C@H](CC(=O)O)NC(=O)[C@@H](NC(=O)[C@@H]1CCCN1C(=O)[C@@H]1CCCN1C(=O)[C@@H]1CCCN1)C(C)C)C(=O)N[C@@H](CCCCN)C(=O)N1CCC[C@H]1C(=O)N[C@@H](CC(=O)O)C(=O)N[C@@H](CCCNC(=N)N)C(=O)O,GRB2,"binding, ITC",,pH 8,,72
O=C(O)c1cc(=O)[nH]c(=O)n1[C@@H]1OC[C@@H](O)[C@H]1O,"Orotidine 5'-phosphate decarboxylase (Saccharomyces cerevisiae S288c, UniProt P03962, Q215A)",HPLC initial velocity,,"25 °C, lower limit, no saturation",,> 100000
COc1ccc(CC2c3cc(OC)c(OC)cc3CCN2CC(=O)N2CCCC(c3ccccc3)C2)cc1OC (stereo not shown),HCRTR1,,,,,3.53 ± 0.65
CCCCCCCNCC(P(=O)(O)O)P(=O)(O)O,"Farnesyl diphosphate synthase (Trypanosoma cruzi, UniProt Q8WS26)","binding, isothermal titration calorimetry",,"28 °C, second site, two-site model",,0.0383
Cn1cc(NC(=O)c2cc(NC(=O)c3cc(NC=O)cn3C)cn2C)cc1C(=O)NCCC(=N)N,HIV-1 SL3 RNA stem-loop,"binding, ESI-FTMS titration",,pH 7.5,,28.5 ± 4.7
[I-].[K+],SLC4A1,"Cl- exchange, inhibitor, 36Cl flux","erythrocytes, external","pH 10.7, 0 °C, internal Cl- 129 mM",,11500
COC(=O)[C@@H](N)CCCCN,LRP1 CR8 domain,"binding, tryptophan fluorescence titration",isolated CR8 domain,"pH 7.4, 298 K, ionic strength 0.17",,350 ± 20
NC[C@@H]1O[C@H](O[C@H]2[C@@H](O)[C@H](O[C@@H]3[C@@H](O)[C@H](N)C[C@H](N)[C@H]3O[C@H]3O[C@H](CN)[C@@H](O)[C@H](O)[C@H]3N)O[C@@H]2CO)[C@H](N)[C@@H](O)[C@@H]1O,HIV-1 nucleocapsid-SL2 RNA complex,"binding, ESI-FTMS",,pH 7.5,,1.9 ± 0.3
COc1ccc(CC2c3cc(OC)c(OC)cc3CCN2CC(=O)NCCCc2ccccc2)cc1OC (stereo not shown),HCRTR1,,,,,2.37 ± 0.24
COc1cccc2c1C(=O)c1c(O)c3c(c(O)c1C2=O)C[C@@](O)(C(C)=O)C[C@@H]3O[C@H]1C[C@H](N)[C@H](O)[C@H](C)O1,HIV-1 SL4 RNA stem-loop,"binding, ESI-FTMS titration",,pH 7.5,,12.1 ± 0.9
CC1NC(NCCC[C@H](N)C(=O)O)=NC1=O (stereo partly shown),"AGER (Homo sapiens, UniProt Q15109)","binding, fluorescence",,pH 6.5,,0.04
COC(=O)[C@@H](N)CCCN=C(N)N,LRP1 CR8 domain,tryptophan fluorescence titration,,"pH 7.4, 298 K, CR8 domain, ionic strength 0.17",,560 ± 20
fibrinogen,"ITGAM (Homo sapiens, UniProt P11215)",binding,,,,0.12
COC(=O)c1cc(Cc2ccc(NCc3ccccc3)c(C(=O)O)c2)ccc1NCc1ccccc1,"PPIA (Homo sapiens, UniProt P62937)","binding, SPR",,pH 7.4,,0.23
OCCCCCOc1ccc(Cl)cc1,"Regulator of G-protein signaling 17 (Homo sapiens, UniProt Q9UGC6)","binding, NMR",,,,2900
CN(CCOc1ccc(CC2SC(=O)NC2=O)cc1)c1ccccn1 (stereo not shown),"Cytochrome P450 2C8 (CYP2C8, Homo sapiens, UniProt P10632)","binding, equilibrium spectral titration",purified enzyme,"pH 7.4, 25 °C, second site, two-site model, together with: 2 µM enzyme",,0.22 ± 0.08
Nc1ncnc2c1ncn2[C@H]1C[C@H](O)[C@@H](COP(=O)(O)OP(=O)(O)OP(=O)(O)O)O1,"DNA polymerase 3 (dpo3, Saccharolobus solfataricus, UniProt P95979, D236A)","nucleotide incorporation, pre-steady-state single turnover",,"correct incorporation, template T, together with: primer-template DNA",,18 ± 6
COc1ccc(CC2c3cc(OCCCCOc4ccccc4)c(OC)cc3CCN2CC(=O)NCc2ccccc2)cc1OC (stereo not shown),HCRTR1,,,,,0.0435 ± 0.0092
CC(=O)N[C@@H](CCCCN)C(=O)N[C@@H](CCCNC(=N)N)C(=O)N[C@@H](CC(C)C)C(=O)N[C@@H](CCCNC(=N)N)C(=O)N[C@@H](CCCNC(=N)N)C(=O)N[C@@H](CO)C(=O)N[C@@H](C)C(=O)N[C@@H](Cc1c[nH]cn1)C(=O)N[C@@H](C)C(=O)N[C@@H](CCCNC(=N)N)C(=O)N[C@@H](CCCCN)C(=O)N[C@@H](CCC(=O)O)C(=O)N[C@H](C(=O)N[C@@H](CCC(=O)O)C(=O)N[C@@H](Cc1ccccc1)C(=O)N[C@@H](CC(C)C)C(=O)N[C@@H](CCCNC(=N)N)C(=O)N[C@@H](CC(C)C)C(=O)N[C@@H](CCCCN)C(=O)N[C@@H](CCCNC(=N)N)C(=O)N[C@H](C(=O)N[C@@H](CCCNC(=N)N)C(=O)N[C@@H](CC(C)C)C(=O)NCC(=O)N[C@@H](CC(C)C)C(=O)N[C@@H](CCC(=O)O)C(=O)N[C@@H](Cc1ccc(O)cc1)C(N)=O)[C@@H](C)O)[C@@H](C)O,"Protein S100-B (Homo sapiens, UniProt P04271)","binding, isothermal titration calorimetry",,"low salt, together with: Ca2+ 5 mM",lower-affinity site,2 ± 1

# For quick reference, copied from above:
Substance,target,assay,test system,conditions,how to read,Kd [µM]
[I-].[K+],SLC4A1,"Cl- exchange, inhibitor, 36Cl flux","erythrocytes, external","pH 10.7, 0 °C, internal Cl- 129 mM",,11500
COc1ccc(CC2c3cc(OC)c(OC)cc3CCN2CC(=O)NCCCc2ccccc2)cc1OC (stereo not shown),HCRTR1,,,,,2.37 ± 0.24
COC(=O)c1cc(Cc2ccc(NCc3ccccc3)c(C(=O)O)c2)ccc1NCc1ccccc1,"PPIA (Homo sapiens, UniProt P62937)","binding, SPR",,pH 7.4,,0.23
COc1cccc2c1C(=O)c1c(O)c3c(c(O)c1C2=O)C[C@@](O)(C(C)=O)C[C@@H]3O[C@H]1C[C@H](N)[C@H](O)[C@H](C)O1,HIV-1 SL4 RNA stem-loop,"binding, ESI-FTMS titration",,pH 7.5,,12.1 ± 0.9
CC1NC(NCCC[C@H](N)C(=O)O)=NC1=O (stereo partly shown),"AGER (Homo sapiens, UniProt Q15109)","binding, fluorescence",,pH 6.5,,0.04
